Results collected from several papers.
Each numbered part is a random draw from the data of one study; scales do not carry over between parts. Substitutions count along the parent as printed.

Block 1
Target: CCNB1, cyclin fold, Cln2 fusion (human)
Technique: yeast growth competition, sequencing
Matrix: yeast
Notes: weak parent motif
Reference: not given
Reading: higher = stronger binding
Measurement: normalised enrichment score
Starting sequence: CDKN1B docking peptide (human); PSACRNLFGPVDH
PSAGRNLFGPVDH [C4G]: -0.0534
PSACRNLFIPVDH [G9I]: 0.454
PSACRNLSGPVDH [F8S]: 0.501
PSALRNLFGPVDH [C4L]: 0.462
PSACRYLFGPVDH [N6Y]: 0.114
FSACRNLFGPVDH [P1F]: 0.429
PSACRNLFGPVWH [D12W]: 0.755

Block 2
Target: RNA binding protein fox-1 homolog 2, RRM domain, GST-SBP tag (RBFOX2, Homo sapiens, UniProt O43251-10, residues 100-194)
Technique: RNA Bind-n-Seq
Molecule type: RNA
Matrix: in vitro
Concentration: 365 nM
Notes: natural RNA segment, single round, ends assumed
Reference: no-protein control
Reading: higher = stronger binding
Measurement: RBNS enrichment (R)
Target sequence (chain): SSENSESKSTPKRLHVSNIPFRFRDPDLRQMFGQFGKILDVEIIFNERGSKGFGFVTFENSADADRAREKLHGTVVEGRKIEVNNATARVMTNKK
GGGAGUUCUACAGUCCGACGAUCUAAGUUAGAAUUUUACCUCAUAAAAUUUUUUGAGGUUUGAUGUAUGUCUCUGUCUUAUCAAUAAUGAGGCUUAAAAAAUACUGGAUUUGAAUGGCUGCCGUUUUUUCAAAUGGAAUUCUCGGGUGCCAA: 0.363
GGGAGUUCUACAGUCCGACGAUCAACUCUGAAGACAACCAAAAGAACGGAUCAAUUAAAAACUGAUUCCACUUAUAACCAUUGUAUGCUCCUUCUAGUGUUAUCAUGCACAAGAAAAGUGCCAGUUUUACCCAUGGAAUUCUCGGGUGCCAA: 0.327
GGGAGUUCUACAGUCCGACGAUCUCACUUCAUUUUCAGAGUUAAUGGGAUCCAUGGUGCAAACUCCAUUAGCAGUUUUAUGCUGGCGAUAAUUUAUCUACGUGCAUUGCAAUAAACAUUUCGUUUCCUAAGAUUGGAAUUCUCGGGUGCCAA: 0.917
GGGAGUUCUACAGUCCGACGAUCUGGCCCUGGUCCCACCUCUAAUCCCUACUGUCAUCAGGCACUACAGCCCAAAAAGAGGUGCUUGUGAGCACACCCACCCAAGUGAACCCAGUGGCUGCCAUGGUCCUCUUUGGAAUUCUCGGGUGCCAA: 0.504
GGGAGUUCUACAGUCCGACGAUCCAAGCACUGUCCUGAGGGGAUACUGUGGAGCAGCCCAGUCCACACCAGAGCCCCACGCGGCUGCCCGGCAGUACCUCCUCCAGGCAGGAGCCGGGACUGUCACUUUGGAGUGGAAUUCUCGGGUGCCAA: 0.352
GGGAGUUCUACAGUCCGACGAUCUCCCGUGGCUUUGCUUGAUCUGUUGUUGCUUCUCCUCAUCAAGACUUUGCAUCAUGUUAGCCAGCCAGUAUUUACUCAUUGUUAGGAAAAUCGAGCUGUGGCUGAAGACCUGGAAUUCUCGGGUGCCAA: 0.626
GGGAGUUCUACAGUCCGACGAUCGGGAAGGAGCAGGGAUGAGACUGGCAAUGGUCACAGGGAAAGAUGUGGCCUUUUGUGAUGGUUUUAUUUUCUGUUAACACUGUGUCCUGGGGGGGCUGGGAAGUCCCCUGUGGAAUUCUCGGGUGCCAA: 0.282

Block 3
Target: Interferon regulatory factor 5, full length, phosphomimetic (IRF5, Homo sapiens, UniProt Q13568-2, residues 1-514, S451D/S453D/S456D/S462D)
Technique: protein-binding microarray
Molecule type: double-stranded DNA, one strand shown
Matrix: in vitro
Concentration: 940 nM top
Notes: 60-bp whole probe
Together with: salmon DNA 0.4 mg/ml
Reference: random background probes
Reading: higher = stronger binding
Measurement: fitted relative affinity
All sequences stand within: GCCTAGCAC … GTCTTGATTCGCTTGACGCTGCTG
TCACCTTGGAAGTATGACACTGTGCTA: 0.0379 z-score
GACGCTCTCAGTATCGAGACGTGCTAG: 3.03 z-score
TTAGGTTTCGACTATCCGTTAGTGCTA: 9.85 z-score
AAACCATTTTTTTTCACTATGTGCTAG: 1.55 z-score
TTAGGTTTCGGGTATCTGTTAGTGCTA: 11.7 z-score
TTACGACTGGGACTGGGTTAGTGCTAG: -0.0763 z-score
GACGGTTTCCATTTCCTGACGTGCTAG: 2.09 z-score
GTGGGTTTGAGTCTTCTCCTGTGCTAG: -0.131 z-score
GACGGTATCGACTTTTGGGACGTGCTA: 3.52 z-score

Other studies, line by line
PhoQ, residues 284 288 289 292 302 303 TYGVAM  fold induction (PhoP, residues 12 14 15 18 19 AQCLL (Escherichia coli, UniProt P23836); Sort-seq, item: YFP reporter; E. coli; PhoQ-PhoP variant library, together with: 10 µM Mg2+; reference: high Mg2+ state, higher = stronger signaling): 0.967

Some of these lines once more (other studies, line by line):
PhoQ, residues 284 288 289 292 302 303 TYGVAM  fold induction (PhoP, residues 12 14 15 18 19 AQCLL (Escherichia coli, UniProt P23836); Sort-seq, item: YFP reporter; E. coli; PhoQ-PhoP variant library, together with: 10 µM Mg2+; reference: high Mg2+ state, higher = stronger signaling): 0.967
